# Results gathered from unrelated publications.
# A part holds a random share of what one study measured. Substitutions count along the parent as printed.

# Block 1 — target: CRIPT, C-terminal peptide; method: DHFR complementation, deep sequencing; sample: yeast; relative to: wild type; reading: higher = weaker binding
# Setting: single substitutions, model-inferred values
# Parent: ERBIN, PDZ domain 1 (human); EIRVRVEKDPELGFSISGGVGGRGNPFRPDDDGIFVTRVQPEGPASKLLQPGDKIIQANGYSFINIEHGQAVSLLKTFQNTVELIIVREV; partner TKNYKQTSV
Substitution,binding free energy change [kcal/mol]
L84R,2.02
I56D,-0.255
I66P,0.886
G19C,0.966
P26N,0.729
P10I,-0.5
V36W,0.645
G43M,0.599
I16L,0.0738
R88H,0.305
R88L,0.779
E83N,0.24
G13Q,0.692
V90G,0.0221
P10G,-0.743
N65H,-0.0286
G18E,1.31
G52D,0.997

# Block 2 — target: CCND2, cyclin fold, Cln2 fusion (human); method: yeast growth competition, sequencing; sample: yeast; setting: weak parent motif; relative to: not given; reading: higher = stronger binding
# Parent: TICRR docking peptide (human); TKVRRNLFNQELL; partner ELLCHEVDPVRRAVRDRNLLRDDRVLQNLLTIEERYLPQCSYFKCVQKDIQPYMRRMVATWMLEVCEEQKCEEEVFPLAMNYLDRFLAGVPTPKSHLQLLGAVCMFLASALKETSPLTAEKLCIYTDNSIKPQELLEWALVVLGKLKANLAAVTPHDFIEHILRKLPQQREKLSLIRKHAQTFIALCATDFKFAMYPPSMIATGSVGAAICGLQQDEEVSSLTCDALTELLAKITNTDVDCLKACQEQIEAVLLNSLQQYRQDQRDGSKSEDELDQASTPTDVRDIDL
Substitution,normalised enrichment score
F8L,0.683
F8A,-0.184
N9A,0.25
L13A,0.414
L12A,-0.412
T1A,0.159
E11A,0.274
R5A L7A,0.211
R5A,0.38
R5K,-0.0588

# Block 3 — method: aptamer microarray, sandwich; form: DNA with 2'F-ANA; sample: in vitro; concentration: 200 nM; added: Cy3 exosite-II aptamer, 400 nM; reading: higher = stronger binding; strand: GGTTGGTGTGGTTGG
# Target: Prothrombin, mature alpha-thrombin (F2, Homo sapiens, UniProt P00734)
# Setting: whole 15-mer aptamer, many near background
Modification,mean fluorescence intensity [a.u.]
2'F-ANA at 1 2 3 9 12 13,397
2'F-ANA at 1 2 3 5 7 9 11 12 14,97.8
2'F-ANA at 1 2 4 6 7 8 12,372
2'F-ANA at 2 3 4 7 8 9 11 12 15,780
2'F-ANA at 7 8 9 11 12 13 14 15,204
2'F-ANA at 4 6 11 12 13 14 15,86.6
2'F-ANA at 3 4 9 11 13 14 15,269
2'F-ANA at 1 2 4 7 11 12 15,229
2'F-ANA at 1 2 5 6 7 8 9 10 12 14 15,52.8
2'F-ANA at 1 3 4 5 6 7 11 12 13 14,46.6
2'F-ANA at 2 8 10 11 13,107
2'F-ANA at 2 3 4 5 7 9 10 11 12 13 14 15,50.9
2'F-ANA at 3 4 6 8 10 13 15,213
2'F-ANA at 1 3 4 5 6 8 9 10 12,61.1
2'F-ANA at 2 3 4 7 11 13 14 15,302
2'F-ANA at 2 5 6 7 11 14,44.4
2'F-ANA at 1 2 3 5 10 15,88.7
2'F-ANA at 5 6 8 9 12 14 15,50
2'F-ANA at 2 10 12 14,97.3
2'F-ANA at 3 7 8 9 12 15,1560
2'F-ANA at 8 9 13 15,389
2'F-ANA at 2 5 6 8 10 11 12 13 14,47.3
2'F-ANA at 1 2 3 5 9 14,126

# Block 4 — target: BATF2, bZIP domain (human); method: DHFR protein complementation; sample: yeast; relative to: wild-type JUN-FOS pair; reading: higher = stronger binding
# Setting: single substitutions, most at no-binding floor
# Parent: JUN, bZIP domain (human); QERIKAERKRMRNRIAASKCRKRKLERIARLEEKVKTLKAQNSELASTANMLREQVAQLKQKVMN; partner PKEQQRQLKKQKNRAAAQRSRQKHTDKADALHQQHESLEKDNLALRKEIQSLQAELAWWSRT
Substitution,binding fitness [natural log]
L31D,-1.08
L45D,-1.32
T48Q,-0.223
L52K,-1.47
V35A,-1.11
A40K,-0.25
M51R,-0.181
K39L,-0.411
R30G,-0.208
M51C,-0.525
V56L,-0.198
R53T,-1.15
V56T,-1.14
L38I,-0.956
V56D,-1.17
K34V,-0.521

# Block 5 — target: OGT, full length, His-tagged (human); method: phage display, sequencing; sample: in vitro; concentration: 1 µg OGT; relative to: input library; reading: higher = stronger binding; parent: peptide; VAYPNSYMPKYQIST
# Setting: single substitutions, 15-mer displayed peptide, unchanged parent 6.14
Substitution,fold enrichment
VAYPNSYMVKYQIST [P9V],0.873 fold
VAYPNSYMPKTQIST [Y11T],0.597 fold
VAYPNDYMPKYQIST [S6D],6.83 fold
VAYPNSPMPKYQIST [Y7P],0.319 fold
VMYPNSYMPKYQIST [A2M],5.21 fold
VAYPNSMMPKYQIST [Y7M],0.691 fold
VAYPNSYMPKYQISG [T15G],1.45 fold
VAYPNSYMDKYQIST [P9D],1.07 fold
VAYPNSYMPKYYIST [Q12Y],0.887 fold
VAYPNSYMSKYQIST [P9S],0.765 fold
VAYPNSYMPKYQGST [I13G],0.159 fold
VAYPNSYMPKYQISS [T15S],2.69 fold
VAYFNSYMPKYQIST [P4F],7.61 fold
VPYPNSYMPKYQIST [A2P],7.53 fold
VAVPNSYMPKYQIST [Y3V],4.04 fold
VAYPNSLMPKYQIST [Y7L],2.69 fold
